Experimental data gathered from unrelated publications.
A part holds a random share of what one study measured.

Sample 1 — technique: protein-binding microarray; form: double-stranded DNA, one strand shown; medium: in vitro; concentration: 2200 nM top; notes: 60-bp whole probe; added: salmon DNA 0.4 mg/ml; baseline: random background probes; direction: higher = stronger binding; quantity: fitted relative affinity; shared flanks, not repeated: GCCTAGCAC … GTCTTGATTCGCTTGACGCTGCTG
Target: Interferon regulatory factor 7, full length, phosphomimetic (IRF7, Homo sapiens, UniProt Q92985, residues 1-503, S471D/S472D/S475D/S476D/S477D/S483D/S484D/S487D)
Residues (chain): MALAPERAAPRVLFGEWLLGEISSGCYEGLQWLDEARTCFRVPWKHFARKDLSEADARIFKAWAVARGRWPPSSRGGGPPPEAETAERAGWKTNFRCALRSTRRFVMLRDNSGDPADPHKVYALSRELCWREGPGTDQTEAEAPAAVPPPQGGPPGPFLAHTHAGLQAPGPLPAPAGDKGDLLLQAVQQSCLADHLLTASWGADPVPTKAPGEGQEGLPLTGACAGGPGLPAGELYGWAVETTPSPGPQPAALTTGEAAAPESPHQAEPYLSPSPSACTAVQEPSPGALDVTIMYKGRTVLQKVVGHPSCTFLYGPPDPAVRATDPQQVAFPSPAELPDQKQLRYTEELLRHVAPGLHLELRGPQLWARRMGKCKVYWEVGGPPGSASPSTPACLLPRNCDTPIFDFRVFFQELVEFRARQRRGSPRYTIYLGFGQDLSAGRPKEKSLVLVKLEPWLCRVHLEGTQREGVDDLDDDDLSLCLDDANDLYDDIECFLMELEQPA
TCATCTTTTCATTTTCTACTGTGCTAG: 3.62 z-score
TTGGGTATCCTTTTCCTTTAGTGCTAG: 1.83 z-score
TCAGTTCTGAGTCTTCCACTGTGCTAG: 1.33 z-score
GACGAACTGAGACTCGAGACGTGCTAG: 0.162 z-score
CTAACTTTCCAATTGTCCTTGTGCTAG: 4.57 z-score
TTAGGTTCCGACTATCGGTTAGTGCTA: 0.731 z-score
CCTTGTGTTACTTTCTACTTGTGCTAG: 5.01 z-score

Sample 2 — technique: protein-binding microarray; form: double-stranded DNA, one strand shown; medium: in vitro; concentration: 0.8 µM; notes: whole 60-bp probe, no competitor; direction: higher = stronger binding; quantity: fluorescence intensity
Target: Centromere-binding protein 1, full length, N-terminal tag (CBF1, Saccharomyces cerevisiae, UniProt P17106, residues 1-351)
Sequence of UniProt P17106 (whole entry, looked up): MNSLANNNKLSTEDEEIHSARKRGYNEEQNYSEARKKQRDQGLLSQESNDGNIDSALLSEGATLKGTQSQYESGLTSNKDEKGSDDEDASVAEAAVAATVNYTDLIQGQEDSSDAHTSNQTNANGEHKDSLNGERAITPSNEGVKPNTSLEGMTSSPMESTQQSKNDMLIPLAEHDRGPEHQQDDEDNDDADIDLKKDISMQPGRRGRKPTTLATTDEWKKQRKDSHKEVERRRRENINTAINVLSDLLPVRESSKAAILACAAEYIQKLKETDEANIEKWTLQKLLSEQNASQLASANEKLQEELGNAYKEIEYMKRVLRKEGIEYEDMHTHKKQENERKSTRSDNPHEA
GAAGATATCGCACCGCACGTTTAGCCTGATCAATAGGTCTTGATTCGCTTGACGCTGCTG: 596 a.u.
CTAAGGTGGCATAAACACAGATTAATAGTATTGTTCGTCTTGATTCGCTTGACGCTGCTG: 516 a.u.
CTATCAACAAAATGGGGCGTGATGAAGAAAAAATTCGTCTTGATTCGCTTGACGCTGCTG: 950 a.u.
TGTACGAAGCTATGGCGCGTGTCTATAGTAGTTAGGGTCTTGATTCGCTTGACGCTGCTG: 668 a.u.

Sample 3 — technique: RNA Bind-n-Seq; form: RNA; medium: in vitro; concentration: 200 nM; notes: whole 134-nt RNA, ends assumed; added: 150 mM KCl; baseline: input library; direction: higher = stronger binding; quantity: log2 enrichment
Target: Fragile X messenger ribonucleoprotein 1, C-terminal low-complexity region (Fmr1, Mus musculus, UniProt P35922)
Shared flanks, not repeated: GGGAGUUCUACAGUCCGACGAUC … UGGAAUUCUCGGGUGUCAAGG
UUGCCCUGGUGGCAUGCGGGGAGGAAGAGGUGGCCUCAUGGAUCGUGGUGGUCCCGGUGGAAUGUUCAGAGGUGGCCGUGGUGGAGACAG: -0.0506
GAAGGAAGUAAAAACAAAUGGAAAUGCUUCGGAUAGUGGCAGGGGUGGGGGUUGCUAAGGAAAGGGUGGGAUGGGAGUGGGUAAAGAGUU: 0.159
CAAGUCCUGUGCUACACAUCGUAUGUACCGAAUCGGGGUUUGGGGUGGGGAGGGGAAAGUAUUAUGUUACGCCGUUCGGAUCUGCACUUC: 1.27
UCCUGUGCUACACAUCGUAUGUACCGAAUCGGGUUUUUUGGUUUUUUGGGUUUUUUGGGAAAGUAUUAUGUUACGCCGUUCGGAUCUGCA: -0.149
UCCUGUGCUACACAUCGUAUGUACCGAAUCGGUUUUUUGGGUUUUUUGGGUUUUUUGGGGAAAGUAUUAUGUUACGCCGUUCGGAUCUGC: -0.131

Sample 4 — technique: Sort-seq; refers to: YFP reporter; medium: E. coli; notes: PhoQ-PhoP variant library; added: 10 µM Mg2+; baseline: high Mg2+ state; direction: higher = stronger signaling; quantity: fold induction
Substance: PhoQ, residues 284 288 289 292 302 303 TGYLSA
PhoP, residues 12 14 15 18 19 TQALL (Escherichia coli, UniProt P23836): 6.33
PhoP, residues 12 14 15 18 19 NYFRM (Escherichia coli, UniProt P23836): 12.8
PhoP, residues 12 14 15 18 19 QYFSL (Escherichia coli, UniProt P23836): 5.62

For quick reference, copied from above (sample 2):
CTATCAACAAAATGGGGCGTGATGAAGAAAAAATTCGTCTTGATTCGCTTGACGCTGCTG: 950 a.u.
TGTACGAAGCTATGGCGCGTGTCTATAGTAGTTAGGGTCTTGATTCGCTTGACGCTGCTG: 668 a.u.
